Measured values collected from several papers.
Numbered parts are unrelated; each lists some results of a single study.

Series 1
Target: RNA binding protein fox-1 homolog 2, RRM domain, GST-SBP tag (RBFOX2, Homo sapiens, UniProt O43251-10, residues 100-194)
Technique: RNA Bind-n-Seq
Form: RNA
Matrix: in vitro
Tested at: 365 nM
Notes: natural RNA segment, single round, ends assumed
Relative to: no-protein control
Direction: higher = stronger binding
Constant ends, left off below: GGGAGUUCUACAGUCCGACGAUC … UGGAAUUCUCGGGUGCCAA
Target sequence (chain): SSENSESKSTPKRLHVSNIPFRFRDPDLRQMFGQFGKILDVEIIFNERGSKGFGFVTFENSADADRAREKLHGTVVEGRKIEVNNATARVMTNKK
Strand	RBNS enrichment (R)
CCAAAGAACCUGGCAAAAGAAGUGGCCAUGUGAAGAGGGACACUCAGGACACUUUACGGGAUCAAAGUGGGUCUACACCAGUGCUGCUUCCUGAAUGUUUGUGUGUGAAC	2.41
ACCACACCCCAAUGCCUUCCCAGCUUGGAAGCCAAGGCAGCUGAUGAAGGGAGCUCAGGAGAGCCGUCUUCAGCUGGGCUGGGGUUGGGGCUGCUGUGAGGAAAACCUGC	0.399
CUGGCUCAGCAUAUACAAGUUAGCUUGCUUUAGGCAAGGGACCUUUCUUGUGAUGGACGUGCACUACGAAGUGAGAUGGAGUCCUGCUCCGUGCAGGAGGCCCUUCAUUA	0.284
UUCAUAUGUUUGAUGAAAACUGGCUCAAGAUGUUUGUAAAUAGAAUCAAGAGCAAAACUGCACAAACUUGCACAUUGGAAAGUGCAACAAGUUCCCGUGAUUGCAGUAAA	0.688
AGGAAUGACAGCAGACUACAAAGCAAAUAAGAUAUACUGAGCCUCAACAGAUUGCCUGCUCCUCAGAGUCUCUCCUAUUUUUGUAUUACCCAGCUUUCUUUUUAAUACAA	1.84
GAGGAGGAAGGGAAAGAGAUGUGAGGGAAGCAUUUCAUCAACCAGCUACGUCCCCCUUAGAAGGAUCACUGCAGCAGGUCACCGAGCAGGAGUCCCUCUGAGCGUCCCUU	0.494
GAAGAUUCGGGCAUGUGAGUGCCCCCAGAACUGUCCUGGCUCCUUCCGUAUUAAACGCAUUUGCAUUUUGAGAAGUGUCCUUCCCACUUCAGCCCUCCGGAGAGACUACC	2.2
UUUUAGCUUAAAAGCAUAGUGAAGAUGCUUGAGGAAGACUUUGCUACCUGGGGUGUGUAGACAGACAGACUGAGAGCUAUCAGCAUUUGAAGGCCCAGCCCUUGACUCUG	3.49
CUGUGUCUGGAGGAUUUUGUCACCUACAAGCCUUGUCUUUACCUCACCUGCUCCCUGCCCAUAUCUACCACAGGCCACUUUGGCAUGGUAUGUAAGCUGAGCUCUUCAUU	0.354
UGACUUUCCUGUUGAAGAGAUUACCUACGUCUGGCCAGAGGAGAGAAUUCAGAGCACGGAACUUUCCAAGAACUGGUGUUAACAUCUUGUACUGUGGCCACGAUUUGUCC	0.401
UUCCCUGGGGGAGAAACCCUCUUGGCUAAUGGCUCUUCCCUGGCAUUAUCAAUAACCACCCGGGGACUCUCUGGCUUUCAGAUCCAUCUGCCUGAGACCCCAAGGUCCUC	0.33
CUGAGGAUAUGAACUACACUGCUUGGUCACACGCUGGGAUCAGAAUCUUAAGCAGUUAUUCUUGCCAGGGUUUUGUUUUGUUUUGCAUUUUGCUCUUCAUUUCCGCAUGU	1.99

Series 2
Target: RING finger protein unkempt homolog, zinc fingers 1-6, GST-SBP tag (UNK, Homo sapiens, UniProt Q9C0B0, residues 30-357)
Technique: RNA Bind-n-Seq
Form: RNA
Matrix: in vitro
Tested at: not given
Notes: RNA with constant flanks, ends assumed
Relative to: input RNA pool
Direction: higher = stronger binding
Constant ends, left off below: GGGAGUUCUACAGUCCGACGAUC … CAACAGAGGAUUGAGCAUCA
Target sequence (chain): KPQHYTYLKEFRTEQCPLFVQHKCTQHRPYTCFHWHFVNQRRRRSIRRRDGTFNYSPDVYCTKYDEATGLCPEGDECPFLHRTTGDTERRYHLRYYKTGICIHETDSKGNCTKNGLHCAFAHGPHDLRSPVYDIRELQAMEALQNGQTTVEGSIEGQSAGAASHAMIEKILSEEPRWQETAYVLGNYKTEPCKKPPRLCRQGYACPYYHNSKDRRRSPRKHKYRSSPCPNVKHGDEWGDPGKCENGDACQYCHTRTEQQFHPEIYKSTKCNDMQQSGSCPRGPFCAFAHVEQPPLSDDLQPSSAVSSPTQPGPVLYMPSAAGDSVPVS
Strand	bound/input enrichment [ratio]
UAUCUGAAUGACUUGGACCGUGUAGCCGACCCUUCCUAUCUGCCUACACAACAAGACGUGCUCCGAGUUCGAGUCCCCACUACAGGGAUCAUCGAAUACCCCUUUGACUUACAAAGUGUC	0.125
CCAGUAGAACCACAAGGGACUUCGGGUGCCACUCAGCAAGAUACUGCCAAAGGUGACCAACCCGAAAGAGUUUCUAAUGGACCUGUGUUAACUCUGGGUGGGUCACCGUCCACAAGCAGU	0.0947
UCUGCGGAAGUCCCCGAGGCAGCCUCCGCGGAGGAGCAGAAGGAAAUGGAAGAUAAAGUGACCCGUCCAGAGAAAGCAGAAGAAGCAAAAUUAAAAGCAAGAUAUCCUCAUCUGGGACAA	0.332
CAAGAAACAGAAGUUGCCAUUGGCUACUGCUUGGCCUUUGAGCACAGAGAAAAAAUGUUUAACCGACUGAGGAUCGAGUCAAAGGACUUACUGUUGUACAGCAAUGUUAAGAAGUGAACA	0.185
GAUAUCCCACUGUUCCCCGUGCAGACAAAAUACAUGGAUGUGGUCAAGGAGCGAAUCCGUUCCGCUCGACAGAUUGAGAAAUCUGAGUAUCGGAACUUCCAGGCUUGCCUGCACAACUCU	0.0936
AAUUCAGGUAACUUCAAAAGUUCAUCAGAUAGAAACCCUCCACUCAGCCCUCAGUCCUCUACCGACCGUGAGUUAAGUGCUUCAGAAUUAGAUGAAGAUUCAAUUGGAUCCAACUAUAAG	0.274
GAACCUGUUGCUGAUGAAGAAGAGGAAGACAGUGAUGAUGAUGUUGAACCUAUUACUGAAUUCCGAUUUGUGCCUAGUGAUAAAUCAGCGUUGGAGGCAAUGUUCACUGCAAUGUGCGAA	0.175
UGGACUCAUGUUGGGCCUACUCCUGCAAUAACAAUUAAGGAAUCAGUUGCCAACCAUUUGCCGUUCACAAAUUAAAACUGGGUUUCCAGGCCUGGUGUGGUGGCUCACGCCUGUAGCCCC	0.553
AUCUAAACUUAGAUGGAGUUGGUCAAAUGAGGGAACAUCUGGGUUAUGCCUUUUUUAAAGCCGUUUUCUUUAGGAACUGUCAGCAUGUUGUUGUUGAAGUGUGGAGUUGUAACUCUGCGU	0.205
CUUCCGGGAGGUGCUUGUGUGCCUGGUGCGGGAGCUACGGGGCCCAGGGAUUGUGUUUAAAGCCGUGCUUCUACCAACAUGUCCCGUGGUUCCAGCGCCGGUUUUGACCGCCACAUUACC	0.109
AGUAUAUGUAAAUGUCUGUUUUUCAUAAUUGCUCUUUAUAUUGUGUGUUAUCAGACAAGACCGUUAUUUAAGAAACAUGGGAAAUGCAGAAAUGACUGCAGUGCAGCAGUAAUUAUGGUG	0.351

Series 3
Target: Hepatocyte nuclear factor 3-alpha (Foxa1, Mus musculus, UniProt P35582, residues 1-468, full length assumed)
UniProt P35582, sequence (whole entry, looked up): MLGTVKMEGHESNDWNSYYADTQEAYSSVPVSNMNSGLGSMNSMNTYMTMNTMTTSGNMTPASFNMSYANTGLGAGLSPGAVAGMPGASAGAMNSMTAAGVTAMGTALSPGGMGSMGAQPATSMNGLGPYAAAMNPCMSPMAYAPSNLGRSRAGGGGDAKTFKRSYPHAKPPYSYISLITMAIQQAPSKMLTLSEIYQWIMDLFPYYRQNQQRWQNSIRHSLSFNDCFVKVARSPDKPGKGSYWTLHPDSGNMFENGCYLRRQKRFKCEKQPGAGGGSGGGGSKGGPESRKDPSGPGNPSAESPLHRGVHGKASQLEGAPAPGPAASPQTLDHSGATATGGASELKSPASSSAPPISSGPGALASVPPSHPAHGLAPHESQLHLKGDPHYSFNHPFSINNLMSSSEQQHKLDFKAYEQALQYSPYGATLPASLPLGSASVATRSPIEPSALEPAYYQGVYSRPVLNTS
Technique: EMSA with sequencing
Form: double-stranded DNA, one strand shown
Matrix: in vitro
Tested at: 10 and 20 nM
Notes: whole designed probe, mean of two concentrations, ends assumed
Relative to: negative control set to 0
Direction: higher = stronger binding
Constant ends, left off below: GTGAGCGGTGCCCATTGATGGGGAAC … TTTCACTGGGATCGTGGGGAC
Strand	normalised bound fraction
TGAGCGATGGGTCGAGTTGGCTTACTAAATTGTGGTAGAAATGAGTGTTATAGCTGAATTCACTTGGTAATTAGCACTTGCATTTACAGATTATGTAATCTAGCAATAGATTCAGGTTTGCACAGACTTAGTGATAGAATCCGGTTGCTAGACTCTTAGCCCAACAGGCTTTCCATCACACAATGAGAACAAG	-0.0313 ratio
GAGAGTCTGTGAATAGGTGCCTACCTCCATCCCGCACTGGGGGCATGAGAGGAGCAGGAACCTTGCATTAGACACAAAGGGTACCCAAGCCAAAATAATCTTCCATAAAGGGCCCCGCCCTGAGGTCCTTGGCATGCTACAGAATAACCTGTTCCAAGCCATGTGGGCAAGACTAAAGCGATACCCTCCCAAG	-0.0729 ratio
TATTCTGCAGGATAAAATTGGAAAGAACTCAGTACATTCATTGTTCAAAGCAATTGATTCACCCTTGAGAAAGCAGGCCGGTAGTTGAAGTGTGTTTACACAGTGACTCAGCTTCTGCTCAGAATTGGGTAACAGGTCTTTATTATCTTTACTTTCTTTCTTAGAAAAAAAAATTGACTAAGTTTTTACAGTG	0.454 ratio
ATCTTCCCCCTCTTCCTTGCCCCACCAGCTCACCTTCCCGGGTTGTTTACTTTGAGGAAATTAATATAAGCCGGCATTCGTTAACCCTCTTCTGGCGCAAACTGCCAGAGCAAACAGATGAATCATGGTCCTTTGGCGACGCCAGGCTCCGGGAGAGCAAAGCACCGTGTCAGGGCCATGATCCGGGGTGGCC	0.341 ratio
ATCTTCCCCCTCTTCCTTGCCCCACCAGCTCACCTTCCCGGGTCAAAGTAAACAAGTGTTTACTTTGAAGCCGGCATTCGTTAACCCTCTTCTGGCGCAAACTGCACATTGGTCTGGATCTAACATGGTCCTTTGGCGACGCCAGGCTCCGGGAGAGCAAAGCACCGTGTCAGGGCCATGATCCGGGGTGGCC	0.424 ratio
ATAGACTCAATGAATCATCCCATTTTAGTTTTTAAGCTAAGCTAAGAAATACCATTGTTGAACTGTACTCAATTCAACAAACATGGATATAAATGTAATCTAGAAAATGAGACTACTTTCAGTGAGAATGCACACTATAATTCATAAGGTAAGTCTAGCTCAAATACTGAAAAGTCAACCATTTGGGATGAAA	0.0458 ratio
TTTTAAGTGAAATCAACTGAAACCTTACTTTTTTTTGCTTTTATACCTAAAATAGAGGATTTAGATATATTTTCTAGGAACGATGATGTAATATGTAAACAAGGAATTTTGGTATTGTTTGAAATATTTTCTCATGGGGACACACCACTAAATTTGTCACCTCTAAAACAGTACTTAGGTTAAATGCTTTTTA	0.32 ratio
AAATGCCAACGTGTATTGGACTTCCCTCTAGTGGTTACATGCAAAATGACAAGCCTATAGTTCCCAAACAGAATGTTGTGTTGTTCTCTACACTGTTTACTTAGCAATCAGCATATTTACTGTGCTTCACTCCATGTACCTTCCATTCACACACTTGGCAAACACCATATCTTCCATGATATTCTCCTGTATC	0.502 ratio

Series 4
Target: Histone acetyltransferase KAT6A, winged helix 1, GST fusion (KAT6A, Homo sapiens, UniProt Q92794, residues 1-85)
Technique: protein binding microarray
Form: double-stranded DNA, one strand shown
Matrix: in vitro
Tested at: not given
Notes: 8-mer, flanks averaged, mean of 2 arrays, mostly near background
Relative to: not given
Direction: higher = stronger binding
Residues (chain): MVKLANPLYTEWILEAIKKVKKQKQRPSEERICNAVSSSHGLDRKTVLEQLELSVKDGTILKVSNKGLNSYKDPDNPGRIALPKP
Strand	E-score
ACGCTAGT	0.157
GGATCATA	0.0345
TCCCTAGA	-0.15
ACCATGAA	-0.0168
CCTCCTGC	-0.253
ACCTGATA	-0.0923
CTGTACTC	-0.108
GTTATTAA	0.074
GGTGTTTA	0.136
TATCGTCA	-0.057
CCACTACG	0.0279
AAGAGTTA	-0.346
GTACACAC	0.0516
AACGTCTA	-0.175
AGGATTGC	-0.165
GGGCTGAA	0.08
AAGTCGAT	-0.0886
CCACTACA	-0.186
CACATAGG	-0.189

Some of these lines once more (series 3):
Strand	normalised bound fraction
GAGAGTCTGTGAATAGGTGCCTACCTCCATCCCGCACTGGGGGCATGAGAGGAGCAGGAACCTTGCATTAGACACAAAGGGTACCCAAGCCAAAATAATCTTCCATAAAGGGCCCCGCCCTGAGGTCCTTGGCATGCTACAGAATAACCTGTTCCAAGCCATGTGGGCAAGACTAAAGCGATACCCTCCCAAG	-0.0729 ratio
TATTCTGCAGGATAAAATTGGAAAGAACTCAGTACATTCATTGTTCAAAGCAATTGATTCACCCTTGAGAAAGCAGGCCGGTAGTTGAAGTGTGTTTACACAGTGACTCAGCTTCTGCTCAGAATTGGGTAACAGGTCTTTATTATCTTTACTTTCTTTCTTAGAAAAAAAAATTGACTAAGTTTTTACAGTG	0.454 ratio
ATCTTCCCCCTCTTCCTTGCCCCACCAGCTCACCTTCCCGGGTTGTTTACTTTGAGGAAATTAATATAAGCCGGCATTCGTTAACCCTCTTCTGGCGCAAACTGCCAGAGCAAACAGATGAATCATGGTCCTTTGGCGACGCCAGGCTCCGGGAGAGCAAAGCACCGTGTCAGGGCCATGATCCGGGGTGGCC	0.341 ratio
ATCTTCCCCCTCTTCCTTGCCCCACCAGCTCACCTTCCCGGGTCAAAGTAAACAAGTGTTTACTTTGAAGCCGGCATTCGTTAACCCTCTTCTGGCGCAAACTGCACATTGGTCTGGATCTAACATGGTCCTTTGGCGACGCCAGGCTCCGGGAGAGCAAAGCACCGTGTCAGGGCCATGATCCGGGGTGGCC	0.424 ratio
